Measurements gathered from unrelated publications.
Numbered parts are unrelated; each lists some results of a single study.
UniProt O00571, sequence (132-607, looked up): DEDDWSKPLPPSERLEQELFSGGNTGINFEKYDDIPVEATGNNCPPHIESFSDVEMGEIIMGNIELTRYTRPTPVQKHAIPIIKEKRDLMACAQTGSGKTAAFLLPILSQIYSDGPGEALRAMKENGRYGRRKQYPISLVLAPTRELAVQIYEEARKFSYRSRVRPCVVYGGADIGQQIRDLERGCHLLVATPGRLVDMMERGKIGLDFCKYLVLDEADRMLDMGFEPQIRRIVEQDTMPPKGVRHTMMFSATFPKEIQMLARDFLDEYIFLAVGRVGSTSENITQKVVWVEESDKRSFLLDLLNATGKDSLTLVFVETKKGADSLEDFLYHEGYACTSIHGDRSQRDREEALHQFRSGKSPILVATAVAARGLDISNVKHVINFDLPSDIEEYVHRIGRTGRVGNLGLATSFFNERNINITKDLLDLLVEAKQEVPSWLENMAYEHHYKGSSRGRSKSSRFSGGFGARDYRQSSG

Set 1 — cell line: HEK-293T; read-out: pseudovirus infection; organism: VSV pseudotyped with SARS-CoV-2 spike; tested at: 10 µM; time: 16 h; relative to: vehicle-treated
SMILES	GFP-positive cells [%]
C[C@H]1CNCCc2ccc(Cl)cc21	87.4
COc1ccc(CN(C(=O)[C@@H](N)Cc2c(C)cc(C(N)=O)cc2C)[C@@H](C)c2ncc(-c3ccccc3)[nH]2)cc1C(=O)O	78.9
O=C(O)C[C@H](O)C[C@H](O)/C=C/c1c(C2CC2)nc2ccccc2c1-c1ccc(F)cc1	81.9
CNC1(C)C2CCC(C2)C1(C)C (stereo not shown)	82.9

Set 2 — action: inhibitor; tested at: 20 µM
Target: Replicase polyprotein 1ab, nsp13 helicase (rep, Severe acute respiratory syndrome coronavirus 2, UniProt P0DTD1)
SMILES	inhibition [%]
Cc1cccc(Cc2c[nH]cn2)c1C	5.3
O=C(O[C@H]1C[N+]2(CCCOc3ccccc3)CCC1CC2)C(O)(c1cccs1)c1cccs1	6.3
Clc1ccc(C(OCCN2CCCCC2)c2ccccc2)cc1 (stereo not shown)	6.58
O=C(Nc1nc2ccc(NC(=O)C34C[C@H]5C[C@@H](C3)C[C@@H](C4)C5)cc2s1)c1ccccc1	-0.31
CS(=O)(=O)c1ccc([C@@H](O)[C@@H](CO)NC(=O)C(Cl)Cl)cc1	3.55
O=S(=O)(O)c1ccc2[nH]c(-c3ccccc3)nc2c1	0.64
Cc1ccsc1C(=CCCN1CCC[C@@H](C(=O)O)C1)c1sccc1C	10.4
CCCN(CCC)C(=O)Cc1c(-c2ccc(Cl)cc2)nc2ccc(Cl)cn12	2.35
COC(=O)C1=C(C)NC(C)=C(C(=O)OC(C)C)C1c1cccc2nonc12 (stereo not shown)	5.15
C/C(=N\NC(=S)N1CCC1)c1ccccn1	8.43
NCC(=O)N1C[C@H](NC(=O)c2ccccc2)C[C@H]1C(=O)O	-1.01
O=C1NC(=O)c2c1c1c3ccccc3[nH]c1c1[nH]c3ccccc3c21	4.6
O=C(Nc1ccccc1)Nc1ccc(-c2ccc(C(=O)[C@@H]3CCC[C@H]3C(=O)O)cc2)cc1	8.73
COc1cc2c(=O)c(-c3ccc(O)cc3)coc2cc1O	2.34
CCO[C@@H](Cc1ccc(OCCc2ccc(OS(C)(=O)=O)cc2)cc1)C(=O)O	-4.25
Cc1cc(C)c(NC(=O)C2CC3CCC2C3)c(C)c1 (stereo not shown)	0.09
CN[C@@H]1Cc2cccc3[nH]c(=O)n(c23)C1	6.4
C[N+]1([O-])[C@@H]2CC[C@H]1C[C@@H](OC(=O)C(CO)c1ccccc1)C2 (stereo partly shown)	2.18
CCCOCCn1c(=O)c(N2CCN(CCO)CC2)nc2cnc(-c3ccc(OC)nc3)cc21	5.12
Cn1cc(/C=C2\C(=O)Nc3cccnc32)c2ccccc21	12.3
C=CCNc1nc(NCC=C)nc(N2CCN(C(c3ccc(F)cc3)c3ccc(F)cc3)CC2)n1	1.48
COc1cc(-c2ncn(/C=C\C(=O)OC(C)C)n2)cc(C(F)(F)F)c1	6.31
CCCC[C@H](NC(C)=O)C(=O)N[C@H]1CC(=O)NCCCC[C@@H](C(=O)O)NC(=O)[C@H](Cc2c[nH]c3ccccc23)NC(=O)[C@H](CCCNC(=N)N)NC(=O)[C@@H](Cc2ccccc2)NC(=O)[C@H](Cc2c[nH]cn2)NC1=O	4.2
N[C@@H](C(=O)O)c1ccc(C(=O)O)c(C(=O)O)c1	-0.53
O=Nc1c(O)[nH]c2c(Cl)c(Cl)ccc12	9.42

Set 3 — read-out: enzyme activity; action: inhibitor; setting: with DTT
Target: Replicase polyprotein 1ab, main protease (rep, Severe acute respiratory syndrome coronavirus 2, UniProt P0DTD1)
Structure (SMILES)	IC50
CC(Cc1ccc(O)c(O)c1)C(C)Cc1ccc(O)c(O)c1 (stereo not shown)	700 nM
CO[C@@H]1[C@H](OC(=O)NC(=O)CCl)CC[C@]2(CO2)[C@H]1[C@@]1(C)O[C@@H]1CC=C(C)C	> 20000 nM
NC[C@H](O)c1ccc(O)c(O)c1	90 nM

Set 4 — method: Spec-seq; form: double-stranded DNA, one strand shown; matrix: in vitro; tested at: not given; setting: whole probe, mean of replicates; relative to: not given; reading: lower = stronger binding
Target: Transcription factor SOX-2, HMG box (Sox2, Mus musculus, UniProt P48432, residues 41-119)
UniProt P48432, sequence (41-119, looked up): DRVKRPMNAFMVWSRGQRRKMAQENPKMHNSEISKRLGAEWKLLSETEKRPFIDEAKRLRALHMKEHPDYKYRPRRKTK
Strand	relative binding energy [ln ratio]
GAGTCGTCTCGTCAGCACCATCGGGCCGTAGAGCACTCAGGTC	0.475
GAGTCGTCTCGTCAGCACCATTCCGCCGTAGAGCACTCAGGTC	0.498
GAGTCGTCTCGTCAGCACCATTCAGCCGTAGAGCACTCAGGTC	-1.5

Set 5 — method: universal PBM; form: double-stranded DNA, one strand shown; matrix: in vitro; tested at: 600 nM; reading: higher = stronger binding
Target: Sal-like protein 4, full length isoform A (SALL4, Homo sapiens, UniProt Q9UJQ4, residues 1-1053)
UniProt Q9UJQ4, sequence (whole entry, looked up): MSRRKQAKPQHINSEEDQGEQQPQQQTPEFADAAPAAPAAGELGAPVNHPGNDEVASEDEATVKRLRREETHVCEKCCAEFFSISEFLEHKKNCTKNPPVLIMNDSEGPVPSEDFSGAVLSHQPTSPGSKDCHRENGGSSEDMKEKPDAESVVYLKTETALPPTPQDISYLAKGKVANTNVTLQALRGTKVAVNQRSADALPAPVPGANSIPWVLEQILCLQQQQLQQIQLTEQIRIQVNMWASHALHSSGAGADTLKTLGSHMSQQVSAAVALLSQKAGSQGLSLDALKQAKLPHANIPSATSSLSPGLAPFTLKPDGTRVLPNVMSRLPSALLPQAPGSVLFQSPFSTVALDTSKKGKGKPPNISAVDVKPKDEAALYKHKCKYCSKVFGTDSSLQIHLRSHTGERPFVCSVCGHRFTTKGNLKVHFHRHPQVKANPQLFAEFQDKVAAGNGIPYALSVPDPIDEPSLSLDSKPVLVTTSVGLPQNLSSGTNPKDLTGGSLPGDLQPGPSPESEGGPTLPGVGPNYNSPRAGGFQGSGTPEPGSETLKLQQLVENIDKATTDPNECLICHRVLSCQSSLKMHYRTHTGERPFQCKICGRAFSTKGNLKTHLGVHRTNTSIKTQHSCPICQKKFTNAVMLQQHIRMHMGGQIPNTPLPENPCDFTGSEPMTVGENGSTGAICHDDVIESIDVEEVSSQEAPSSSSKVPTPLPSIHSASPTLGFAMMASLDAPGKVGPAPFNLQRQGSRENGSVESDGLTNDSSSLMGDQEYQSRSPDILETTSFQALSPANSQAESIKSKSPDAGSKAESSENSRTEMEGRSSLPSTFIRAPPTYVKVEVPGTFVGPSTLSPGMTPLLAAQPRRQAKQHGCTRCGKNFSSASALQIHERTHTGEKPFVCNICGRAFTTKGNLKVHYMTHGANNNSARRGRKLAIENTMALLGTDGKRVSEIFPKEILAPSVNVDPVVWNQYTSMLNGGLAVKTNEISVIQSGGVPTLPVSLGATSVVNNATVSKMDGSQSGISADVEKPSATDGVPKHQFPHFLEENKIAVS
Setting: 8-mer, flanks averaged, mean of replicates
Strand	E-score
TATAGCAA	0.269
CGGATGAG	-0.127
CTTTATTA	0.363
CTCCCAAC	-0.12
AGCTACAG	-0.118
CGTATAAA	0.34
GATCTAGC	-0.217
ATTACTCA	0.266

Set 6 — method: RNAcompete; form: RNA; matrix: in vitro; tested at: 20 nM; setting: 7-mer, probes averaged, single round; relative to: mean of 7-mers; reading: higher = stronger binding
Target: PABPC1L2, full length, GST fusion (mouse, UniProt A0ABA7IW68)
Strand	7-mer Z-score
UUGUUGC	-0.318
UCCUCUC	-0.369
AGAUGUU	-0.353
UCCGACU	-0.298
AAUAAGU	0.296
GUGUUUA	-0.347
UGGCAUG	0.017
UCUAGUC	-0.358

Further values, each from its own experiment — method: RNA Bind-n-Seq; form: RNA; matrix: in vitro; tested at: 90 pmol; setting: 4-mer, random 30-nt RNA, single round; together with: 3 µM DMDA-PatA, 2 mM ADP, 2 mM phosphate; relative to: input library; reading: higher = stronger binding
EIF4A1: Eukaryotic initiation factor 4A-I (EIF4A1, Homo sapiens, UniProt P60842, residues 1-406, full length assumed)
UniProt P60842, sequence (whole entry, looked up): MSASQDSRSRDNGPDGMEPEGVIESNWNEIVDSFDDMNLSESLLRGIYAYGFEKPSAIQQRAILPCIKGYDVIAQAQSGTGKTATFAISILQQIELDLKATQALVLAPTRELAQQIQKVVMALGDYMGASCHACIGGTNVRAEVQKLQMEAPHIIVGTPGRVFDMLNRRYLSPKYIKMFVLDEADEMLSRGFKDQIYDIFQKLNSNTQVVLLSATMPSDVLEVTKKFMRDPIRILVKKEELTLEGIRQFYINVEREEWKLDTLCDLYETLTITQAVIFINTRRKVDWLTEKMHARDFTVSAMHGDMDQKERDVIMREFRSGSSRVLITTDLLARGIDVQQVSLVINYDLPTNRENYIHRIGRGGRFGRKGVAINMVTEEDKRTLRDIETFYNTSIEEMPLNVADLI
Strand	target	4-mer enrichment [fold]
AUAU	EIF4A1	0.979
GCAC	ATP-dependent RNA helicase DDX3X, helicase core (DDX3X, Homo sapiens, UniProt O00571, residues 132-607)	0.922
UAUC	EIF4A1	0.678
GAUC	EIF4A1	0.67

Some of these lines once more (set 2):
SMILES	inhibition [%]
O=C(Nc1ccccc1)Nc1ccc(-c2ccc(C(=O)[C@@H]3CCC[C@H]3C(=O)O)cc2)cc1	8.73
COc1cc2c(=O)c(-c3ccc(O)cc3)coc2cc1O	2.34
CCO[C@@H](Cc1ccc(OCCc2ccc(OS(C)(=O)=O)cc2)cc1)C(=O)O	-4.25
Cc1cc(C)c(NC(=O)C2CC3CCC2C3)c(C)c1 (stereo not shown)	0.09
CN[C@@H]1Cc2cccc3[nH]c(=O)n(c23)C1	6.4
C[N+]1([O-])[C@@H]2CC[C@H]1C[C@@H](OC(=O)C(CO)c1ccccc1)C2 (stereo partly shown)	2.18
CCCOCCn1c(=O)c(N2CCN(CCO)CC2)nc2cnc(-c3ccc(OC)nc3)cc21	5.12
